Assay results pooled from the literature.
Each numbered part is a random draw from the data of one study; scales do not carry over between parts.

Series 1
Target: Ras GTPase-activating protein-binding protein 1, full length (G3BP1, Homo sapiens, UniProt Q13283)
UniProt Q13283, sequence (whole entry, looked up): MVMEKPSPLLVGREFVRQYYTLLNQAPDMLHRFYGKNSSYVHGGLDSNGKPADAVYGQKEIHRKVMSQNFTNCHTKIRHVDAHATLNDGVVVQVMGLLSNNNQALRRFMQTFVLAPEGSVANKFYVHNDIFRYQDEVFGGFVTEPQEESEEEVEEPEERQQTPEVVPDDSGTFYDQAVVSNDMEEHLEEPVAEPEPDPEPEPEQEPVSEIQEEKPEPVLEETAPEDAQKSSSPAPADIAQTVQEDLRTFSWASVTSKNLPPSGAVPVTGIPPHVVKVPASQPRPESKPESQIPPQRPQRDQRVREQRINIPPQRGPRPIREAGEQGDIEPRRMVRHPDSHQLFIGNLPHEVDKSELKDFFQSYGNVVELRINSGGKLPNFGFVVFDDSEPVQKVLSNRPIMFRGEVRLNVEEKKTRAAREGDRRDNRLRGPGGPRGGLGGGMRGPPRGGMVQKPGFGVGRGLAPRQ
Method: RNA Bind-n-Seq
Molecule type: RNA
Sample: in vitro
Tested at: 200 nM
Setting: whole 134-nt RNA, ends assumed
Added: 150 mM KCl
Reference: input library
Reading: higher = stronger binding
Sequence | log2 enrichment
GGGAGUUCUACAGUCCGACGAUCUGGCCCUGGUGGCAUGCGGGGAGGAAGAGGUGGCCUCAUGGAUCGUGGUGGUCCCGGUGGAAUGUUCAGAGGUGGCCGUGUUGGAGACAGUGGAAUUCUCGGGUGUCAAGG | 0.0313
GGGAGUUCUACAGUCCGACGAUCCACAGACAACACGCACCCACACAGACACAGAGGGAAGGGGUUGGGAUGGGGACAGGGUGCACAGCAGGGCGGGGUCGGACCCCAGCCCCUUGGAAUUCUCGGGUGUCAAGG | 1.99
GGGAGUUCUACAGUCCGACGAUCCAAGUCCUGUGCUACACAUCGUAUGUACCGAAUCGGGGCCCGGCCCGGGCCCGGGAAAGUAUUAUGUUACGCCGUUCGGAUCUGCACUUCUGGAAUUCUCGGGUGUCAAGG | -0.63
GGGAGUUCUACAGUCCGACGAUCUGGGAGGUGGAUUUUGUUUAUUUUUUCAGCUCAUUUCCAGGGGUGGGAAUUUUUUUUUAAUAUGUGUCAUGAAUAAAGUUGUUUUUGAAAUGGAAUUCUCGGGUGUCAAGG | 0.173
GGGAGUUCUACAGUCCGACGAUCAACAGACAACACGCACCCACACAGACACAGAGGGAAGGGGUUGGGAUGGGGACAGGGUGCACAGCAGGGCGGGGUAGGACCCCAGCCCCUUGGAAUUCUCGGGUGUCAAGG | 1.74
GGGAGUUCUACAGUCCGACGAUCUGCAGGGUCUGGGUAGCAGCUGGGCUUCCAGCUUUCUCCUUGCACCUGACUUGGGCUUUUUUCUCCUCACAGGAUGGGCCUUGACGGCAUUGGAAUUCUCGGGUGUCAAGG | -0.412
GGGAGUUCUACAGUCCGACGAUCAAGUCCUGUGCUACACAUCGUAUGUACCGAAUCGGAAAAAAAGGUUUGGAAAAAGGAAAGUAUUAUGUUACGCCGUUCGGAUCUGCACUUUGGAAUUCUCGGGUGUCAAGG | -1.56
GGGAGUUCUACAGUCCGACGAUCGUCCUGUGCUACACAUCGUAUGUACCGAAUCGGGGAAAAAGGGAAAAAGGAAAAAGGGGAAAGUAUUAUGUUACGCCGUUCGGAUCUGCAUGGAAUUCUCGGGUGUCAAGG | -0.295
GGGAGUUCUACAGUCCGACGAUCGUCCUGUGCUACACAUCGUAUGUACCGAAUCGGGAAAGGGAAAAAGGGUUUUUUUGGGAAAGUAUUAUGUUACGCCGUUCGGAUCUGCACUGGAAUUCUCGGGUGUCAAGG | -0.512
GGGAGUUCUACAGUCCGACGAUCUGAGAGGUGGAUUUUGUUUAUUUUUUUAGCUCAUUUCCAGGGGUGGGAAUUUUUUUUUAAUAUGUGUCAUGAAUAAAGUUGUUUUUGAAAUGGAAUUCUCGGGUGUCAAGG | -0.0682

Series 2
Target: Sal-like protein 4, full length isoform B (SALL4, Homo sapiens, UniProt Q9UJQ4-2, residues 1-616)
Method: universal PBM
Molecule type: double-stranded DNA, one strand shown
Sample: in vitro
Tested at: not given
Setting: 8-mer, flanks averaged, mean of replicates
Reading: higher = stronger binding
Construct (chain): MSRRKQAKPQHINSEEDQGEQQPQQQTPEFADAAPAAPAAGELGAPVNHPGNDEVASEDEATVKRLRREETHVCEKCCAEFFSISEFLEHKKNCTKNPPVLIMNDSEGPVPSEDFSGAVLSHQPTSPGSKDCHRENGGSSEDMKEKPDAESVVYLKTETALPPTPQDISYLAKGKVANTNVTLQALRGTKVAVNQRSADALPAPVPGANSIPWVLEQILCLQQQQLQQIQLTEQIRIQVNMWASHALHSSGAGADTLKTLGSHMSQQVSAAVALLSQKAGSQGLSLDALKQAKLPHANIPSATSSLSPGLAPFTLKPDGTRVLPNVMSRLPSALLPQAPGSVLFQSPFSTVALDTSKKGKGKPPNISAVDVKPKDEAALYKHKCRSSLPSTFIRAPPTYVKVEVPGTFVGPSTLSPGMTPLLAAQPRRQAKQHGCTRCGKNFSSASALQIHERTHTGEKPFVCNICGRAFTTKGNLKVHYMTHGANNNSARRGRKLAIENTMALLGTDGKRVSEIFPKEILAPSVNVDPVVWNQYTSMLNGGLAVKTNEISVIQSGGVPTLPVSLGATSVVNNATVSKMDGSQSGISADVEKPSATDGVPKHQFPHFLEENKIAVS
Sequence | E-score
AGTTTGAT | 0.0519
TACGGGAA | -0.148
AGGTAGAG | -0.0874
GATTTGGC | -0.00165
AGAGTGGG | -0.13
CTGTTAAA | 0.154
CGGAAGAC | -0.238
CGATGCGA | -0.185
AGGTGCGG | -0.184
CTTGCAGA | -0.134
GTCGATTA | 0.203
CGGTGAAG | -0.102
CCGTGCCA | -0.215
CTGCGCAC | -0.13
ATTATTAG | 0.394
ATTGATCC | 0.0905
CGTCTGTC | -0.238
ACATATCG | 0.0787
ATCAGAAA | 0.124
ACAAGGAG | 0.0372
AGCTCTTA | -0.161
GCTTTAAC | 0.025
ACAGGCCA | -0.194

Series 3
Target: RNA binding protein fox-1 homolog 2, RRM domain, GST-SBP tag (RBFOX2, Homo sapiens, UniProt O43251-10, residues 100-194)
Method: RNA Bind-n-Seq
Molecule type: RNA
Sample: in vitro
Tested at: 365 nM
Setting: natural RNA segment, single round, ends assumed
Reference: no-protein control
Reading: higher = stronger binding
Target sequence (chain): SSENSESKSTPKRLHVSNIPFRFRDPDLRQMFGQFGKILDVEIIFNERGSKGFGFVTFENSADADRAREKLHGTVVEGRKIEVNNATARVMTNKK
Sequence | RBNS enrichment (R)
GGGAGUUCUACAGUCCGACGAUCAAAACAUGCUUAAAGGAGUAACUAGGAGGGUAAAGCAGUUACAGCUUAGUGAUACAAAUACAUUUCUCUGUAGACUUCCUUAAGGAAAGACGUGAGUAGAGCUAGGUUGGUGGAAUUCUCGGGUGCCAA | 0.313
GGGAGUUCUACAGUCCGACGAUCGCUGGGCCCCAGUCUCCAAGGGCGAGAAUGGACCCUGAUGGACUUGGACAUGGAGCUGUCCUUGGGAAGGACCCCACGCUCGGGGCCCCACUCCUGCUGGAUGUCCAGGCUGGAAUUCUCGGGUGCCAA | 0.226
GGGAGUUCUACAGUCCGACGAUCUGUUGAAGCUAGAGGCGGCUAGAGCAACCCUGGCUGGUAGAGGCCUGGCACACCCUAGUAGCCGGGUCUGGCCAGGCAGCGCCGCAUGGCUCUGAACAGCAACUCUGUCCUGGAAUUCUCGGGUGCCAA | 0.329
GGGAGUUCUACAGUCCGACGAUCGAAGCUGAUACAUUGCACAAUUCUCUAGACACCACUCACUACACUAAUGCAGUUUUUCAAAUUCUAGUAUUAUGUGUUGCUUAAGAUCACUACAGAGAUGCUACUGAAGAUGGAAUUCUCGGGUGCCAA | 0.42
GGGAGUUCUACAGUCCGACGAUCGUUGAGUUUUGCAUAAACACAAACUGUUCAUCCACAGCACUGCUCAAUCUCCUUCUAUCCCUCCUCCCCAAGCAGUCAGGUUAUGGGCUAUGGCCCUAUGUCACUCUGCCUGGAAUUCUCGGGUGCCAA | 0.212
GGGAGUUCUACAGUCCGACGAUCCUUUCCCCCAGCCGCACGGGUCCCAGGCCCCAGAGAAGAUGAGUCUAUGGCAUCAGGUUCUUAAACCCAGGAAAGCACCUACAGACCGGCUCCUCCAUGCACUUUACCAGUGGAAUUCUCGGGUGCCAA | 1.06
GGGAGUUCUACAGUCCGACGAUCUCCUGGUUUUUGAAGAGCCUGUUAAGUACACUUGGCUAUUUCCUCCUUGGAGUCCUGUUCUUGCUCACGCCUUGUGGCUAUUUUGCCCUCAGAGUGCCCUGUAUCCUACAUGGAAUUCUCGGGUGCCAA | 0.814
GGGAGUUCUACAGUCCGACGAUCUUUUGAAGCUACUAAUUUUAUGUCGAGCUUUAAAGUCCAUAAUUGUUAUCUUCAGAAAAUAUUAUUUGACCUACAGUAUGUCCAAAUCAAUUUAAUAAAAUCGCUUUAUAUGGAAUUCUCGGGUGCCAA | 1.28
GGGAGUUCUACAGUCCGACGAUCUCCUCUGUCUCACAGGGCCCCUCUCCCUUCUGUUCAGUAAACAAACUGAAGCCAAAAAUGAAGCCGUGGCCAAGCGUGACCCAGAGAUGGGGUGUCCUGGCCCUUAGUGAUGGAAUUCUCGGGUGCCAA | 0.324
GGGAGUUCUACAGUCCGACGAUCCCCCCUCUCCUCUCUGUAAGCCCAUGCCCUGUCUUCCCAGGGACUUGUGAGCCUCUUCCCUCGACGGUCCUCUUCUCUCCUUCCAGUCCUCUCCCCCUGCUGUCUGCAGCUGGAAUUCUCGGGUGCCAA | 0.786
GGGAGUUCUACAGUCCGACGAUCUUUUUUAUACUAAAAAUGUAGAAUAAAGACUAUUUUGAAGAUUUGAAUAAAGUGAUGAAGUUGCAUUACACCUCACGCCAGCAUUCUUUACUUAGCAUGUGCUCAGAUGGUGGAAUUCUCGGGUGCCAA | 3.28
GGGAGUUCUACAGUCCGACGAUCUCUCUGUGACCUCACCCUGGCCUCUCCUGGAGCUCUGAACCUGCUGUGGAAGGAAGUGGCUGUGACUUUAACCACUGGAGAGCGGAGUCUGUGGUGUGGAGAGGGUGUUCUGGAAUUCUCGGGUGCCAA | 0.831

Series 4
Target: Interferon regulatory factor 5, full length, phosphomimetic (IRF5, Homo sapiens, UniProt Q13568-2, residues 1-514, K96S/S451D/S453D/S456D/S462D)
Method: protein-binding microarray
Molecule type: double-stranded DNA, one strand shown
Sample: in vitro
Tested at: 250 nM
Setting: 60-bp whole probe
Added: salmon DNA 0.4 mg/ml
Reference: random background probes
Reading: higher = stronger binding
Constant ends, left off below: GCCTAGCAC … GTCTTGATTCGCTTGACGCTGCTG
Sequence | log fluorescence [z-score]
TTGGTTCTGATCCTTCCCCTCGTGCTA | -0.0415
GACGAACTGAGGCTCGAGACGTGCTAG | -0.313
GTTTGGGTCTTGTCTGGAGTCGTGCTA | -0.174
GACGGACTGGACACTGTGGACGTGCTA | -0.526
ATAGGTATCGACTTTCGGTTAGTGCTA | 10.3
GACGATATCAGTTTCGAGATGTGCTAG | 6.65
TAAGGACTGCTACTGCTTTAGTGCTAG | -0.425
TCAGATCACCGATTTCCTACTGTGCTA | 0.23
TTAGGTATTGACACTGGGTTAGTGCTA | -0.0263
TCCCAATTCTCTTTTCACTTGTGCTAG | 1.22
TCATTTCTCTGCTCTTTTACTGTGCTA | 1.85
CCACTTTTATTTTCAGTATTGTGCTAG | 3.83
TCACCTCTAACTTCCCAACTGTGCTAG | 0.00782
GACGGTCTCCTTCTACTGACGTGCTAG | 0.0598
GACGGTCTCGGTCTCGGGACGTGCTAG | 0.0104
TTAGGACTGGGGACGGGGTTAGTGCTA | 0.359
AACAGAGGAATGGATACAGAGTGCTAG | 0.163
TCATGTTTTTTTCTACTTCTGTGCTAG | 1.41
GACGATTTCAGATTGGAGACGTGCTAG | 0.291
GCTCATCTGTCATGTTTGTCAGTGCTA | 0.326
TTAGGTATCGGACTCGGTTAGTGCTAG | 1.48
GACGGACTGGGCTTCGGGACGTGCTAG | -0.563
TCAACTTTCTCTGCTCTTACTGTGCTA | 2.38
TTAGGACTGCTTCTCGTTTAGTGCTAG | -0.0899
GACGGTATCCTACGGCTGACGTGCTAG | -0.177

Excerpt of the above (series 4):
Sequence | log fluorescence [z-score]
GCTCATCTGTCATGTTTGTCAGTGCTA | 0.326
TTAGGTATCGGACTCGGTTAGTGCTAG | 1.48
GACGGACTGGGCTTCGGGACGTGCTAG | -0.563
TCAACTTTCTCTGCTCTTACTGTGCTA | 2.38
TTAGGACTGCTTCTCGTTTAGTGCTAG | -0.0899
